Results from different studies.
Values joined by “and” are separate records of one study, mostly repeats; a detail may differ. ± marks the error that the study gave. Converted amounts (≈) assume the structure as drawn. Where no end group is shown, it is not given here.

| Molecule | target or system | assay | test system | conditions | how to read | measurement | value |
| --- | --- | --- | --- | --- | --- | --- | --- |
| N=C(N)N | Enterovirus D68 | virus yield reduction | RD cells, US/KY/14-18953 | 3 d | – | EC90 | 60 ± 1.3 µM |
| COC(=O)[C@@H]1Cc2c([nH]c3ccccc23)[C@@H](c2ccc3c(c2)OCO3)N1 | Plasmodium berghei | parasitaemia suppression, Peters suppressive test | NK-65, mice | oral | – | ED50 | 27.7 mg/kg |
| O=c1c(O)c(-c2cc(O)c(O)c(O)c2)oc2cc(O)cc(O)c12 | Human immunodeficiency virus 1 | viral replication, inhibitor | TZM-bl, NL43 | 11.1 µM | – | inhibition | > 50% |
| CCCN(CCC)CCOc1ccc2c(=O)c3c(Cl)c(Cl)ccc3[nH]c2c1 | Plasmodium berghei | – | male C57BL/6 albino mouse | oral, liver stage, luciferase sporozoites | – | fully protective curative dose | 10 mg/kg |
| CC1(C)S[C@@H]2[C@H](NC(=O)[C@H](N)c3ccccc3)C(=O)N2[C@H]1C(=O)O | Micrococcus luteus | microbial growth, disc diffusion | IFO3232 | 100 µg/disc, 24 h | – | inhibition zone | 19 mm |
| CO/N=C1\C[C@]2(C[C@@H]3C[C@@H](C/C=C(\C)C[C@@H](C)/C=C/C=C4\CO[C@@H]5[C@H](O)C(C)=C[C@@H](C(=O)O3)[C@]45O)O2)O[C@H](/C(C)=C/C(C)C)[C@H]1C | Haemonchus contortus | – | multidrug resistant, sheep | subcutaneous, 0.2 mg/kg, day 6 post-treatment, added: closantel 5 mg/kg | – | faecal egg count reduction | 93% |
| CC1(C)S[C@@H]2[C@H](NC(=O)[C@H](N)c3ccc(O)cc3)C(=O)N2[C@H]1C(=O)O | Streptococcus pyogenes | – | hospitalized pneumonia patients, clinical isolates | Fine score 70 or more | – | susceptible isolates | 100% |
| O=c1c(O)c(-c2ccc(O)c(O)c2)oc2cc(O)cc(O)c12 | Trypanosoma brucei | parasite growth, resazurin | – | trypomastigote | – | IC90 | 9.76 µg/mL (≈ 32.3 µM) |
| TDVDAVFLRF-NH2 (C-amide) | Drosophila melanogaster | heart rate | adult heart | 40 nL injected, 1 µM, 10 min | relative to: DMS | inhibition | 76% |
| COc1cc(OC)cc(-c2cc3ccccc3[nH]2)c1 | RAW264.7 | sulforhodamine B | – | 50 µM, 20 h | relative to: vehicle | viability | 110 ± 2.4% |
| CC1(C)CC[C@]2(C(=O)O)CC[C@]3(C)C(=CC[C@@H]4[C@@]5(C)CC[C@H](OC(=O)CCC(=O)O)[C@@](C)(COC(=O)CCC(=O)O)[C@@H]5CC[C@]43C)[C@@H]2C1 | Leishmania mexicana | – | RAW264.7, axenic amastigotes | – | relative to: RAW ED50 over amastigote ED50 | selectivity index | > 10 |
| CCCN(CCC)CCOc1ccc2c(=O)c3c(F)cc(F)cc3[nH]c2c1 | Plasmodium berghei | – | male C57BL/6 albino mouse | oral, liver stage, luciferase sporozoites | – | fully protective curative dose | 10 mg/kg |
| Nisin A | Lactococcus lactis | deferred antagonism overlay | 90869, GM17 agar | concentration not given, produced by spotted strain | – | inhibition zone diameter | 7.5 ± 0.38 mm |
| GKVKVGVNGFGRIGRLVTRAAFNSGKVDIVA | Candida albicans SC5314 | epithelial damage | peptide, TR146 | 5 µg/mL, 24 h | relative to: untreated infected | LDH release | decreased |
| TDVDHVALRF-NH2 (C-amide) | Drosophila melanogaster | gut contraction | wandering third instar larval gut | injection, 1 µM, within 10 min | relative to: DMS effect | inhibition | 10% |
| LSTFFRLFN | Streptococcus gordonii | OD600 | peptide, ATCC 10558, 4 h single-species biofilm | 128 µg/ml, 5 min exposure, OD600 read over 5 h | – | biofilm growth | no effect |
| COc1ccc(-c2nc(N3CCOCC3)c3sc(CN(C)c4ncc(C(=O)NO)cn4)cc3n2)cn1 | Lucilia cuprina | larval growth | – | – | relative to: diflubenzuron and dicyclanil, fold less potent | potency ratio | 50 to 100 fold |
| C[C@H](NC(=O)C(=O)Nc1ccccc1C(C)(C)C)C(=O)N[C@@H](CC(=O)O)C(=O)COc1c(F)c(F)cc(F)c1F | Zika virus | cell proliferation | human neural progenitor cells, brain organoid | concentration not given | relative to: mock | PH3-positive hNPC | 106 ± 10% |
| TDVAHVFLRF-NH2 (C-amide) | Drosophila melanogaster | gut contraction | adult gut | 1 µM, within 10 min | relative to: DMS effect | inhibition | 91% |
| CC[C@H]1OC(=O)[C@H](C)[C@@H](O[C@H]2C[C@@](C)(OC)[C@@H](O)[C@H](C)O2)[C@H](C)[C@@H](O[C@@H]2O[C@H](C)C[C@H](N(C)C)[C@H]2O)[C@](C)(O)C[C@@H](C)CN(C)[C@H](C)[C@@H](O)[C@]1(C)O | Moraxella | – | community-acquired pneumonia patients | Fine score 70 or more | – | sensitive strains | 100% |
| c1ccc(-c2cc3ccccc3[nH]2)cc1 | RAW264.7 | NO release, inhibitor, Griess | – | 50 µM, 20 h, LPS-stimulated | – | inhibition | 79% |
| Cc1c(C(=O)Nc2ccc3c(c2)B(O)OC3)nnn1-c1ccccn1 | Leishmania major | – | MHOM/SA/85/JISH118, BALB/c mouse | topical, 50 µL saturated solution twice daily, 10 days, propylene glycol-ethanol 1:1 vehicle | relative to: vehicle | lesion size reduction | 71.4% and 91.3% |
| CC(/C=C/C(=O)NO)=C\[C@@H](C)C(=O)c1ccc(N(C)C)cc1 | Lucilia cuprina | larval growth | – | – | relative to: diflubenzuron and dicyclanil, fold less potent | potency ratio | 50 to 100 fold |

| Molecule | target or system | assay | test system | conditions | how to read | measurement | value |
| --- | --- | --- | --- | --- | --- | --- | --- |
| NC(=O)c1ncn([C@@H]2O[C@H](CO)[C@@H](O)[C@H]2O)n1 | Enterovirus D68 | virus yield reduction | RD, US/KY/14-18953 | 72 h | – | EC90 | 93 ± 23 µM |
| CS(=O)(=O)c1ccc(-c2cnc(N)c(-c3ccc(C(F)(F)F)nc3)c2)cc1 | Plasmodium cynomolgi | liver-stage schizont growth | primary rhesus hepatocytes | compound added at 3 h, read day 0 | – | IC50 | 64 nM |
| CC[C@H]1OC(=O)[C@H](C)[C@@H](O[C@H]2C[C@@](C)(OC)[C@@H](O)[C@H](C)O2)[C@H](C)[C@@H](O[C@@H]2O[C@H](C)C[C@H](N(C)C)[C@H]2O)[C@](C)(O)C[C@@H](C)C(=O)[C@H](C)[C@@H](O)[C@]1(C)O | Streptococcus pyogenes | – | hospitalized pneumonia patients, clinical isolates | Fine score 70 or more | – | susceptible isolates | 100% |
| O=C(O)c1cc(O)c(O)c(O)c1 | Human immunodeficiency virus 1 | viral replication, inhibitor | TZM-bl, BAL | 11.1 µM | – | inhibition | ~50% |
| O=C1NC(=S)S/C1=C\c1cn(Cc2cccc(Cl)c2)c2ccc([N+](=O)[O-])cc12 | Trypanosoma congolense | – | trypomastigotes, IL3000 | – | – | IC50 | > 61000 nM |
| Cc1ncnc2c1c(C1=CCOCC1)cn2[C@@H]1O[C@H](CO)[C@@H](O)[C@H]1O | Leishmania infantum | parasite growth, imaging | mouse Macrophage | 5 days, intracellular, amastigote | – | EC50 | 2450 nM |
| CTCATACTGA | Salmonella enterica Typhimurium | RNA-seq, measured: fabF mRNA | peptide, SL1344 | 5 µM, 15 min | relative to: untreated | log2 fold change | -1.9 |
| O=C1NC(=S)S/C1=C\c1cn(Cc2ccc(F)cc2)c2ccc([N+](=O)[O-])cc12 | Trypanosoma congolense | – | trypomastigotes, IL3000 | – | – | IC50 | 2520 ± 730 nM |
| TDVDHVFARF-NH2 (C-amide) | Drosophila melanogaster | heart rate | adult heart | 40 nL injected, 1 µM, 10 min | relative to: DMS | inhibition | 86% |
| GACATACTCT | Salmonella enterica Typhimurium | RNA-seq, measured: fabF mRNA | peptide, SL1344 | 5 µM, 15 min | relative to: untreated | log2 fold change | -1.2 |
| TDADHVFLRF-NH2 (C-amide) | Drosophila melanogaster | gut contraction | adult gut | 1 µM, within 10 min | relative to: DMS effect | inhibition | 100% |
| O=C(O)CSc1nnc(C23CC4CC(CC(C4)C2)C3)n1-c1ccccc1 | Micrococcus luteus | microbial growth, disc diffusion | IFO3232 | 200 µg/disc, 24 h | – | inhibition zone | 18 mm |
| CCCCc1cc2c(=O)c(I)c[nH]c2cc1OCCOc1ccccc1 | Plasmodium berghei | – | mouse | oral, 50 mg/kg, day 3, single dose in PEG400 | relative to: untreated | parasitemia inhibition | 53.9% |
| COc1ccc2c(C[Se][C@@H]3O[C@H](CO)[C@H](O)[C@H](O)[C@H]3O)cc(=O)oc2c1 | Trypanosoma brucei brucei | flow cytometry | bloodstream form, hGrx1-roGFP2 | EC50, 1 h | relative to: diamide 500 µM maximum and minimum oxidation | biosensor oxidation | 20% |
| CNC(C)C1CCC(N)C(OC2C(N)CC(N)C(OC3OCC(C)(O)C(NC)C3O)C2O)O1 (stereo not shown) | Micrococcus luteus | microbial growth, disc diffusion | IFO3232 | 100 µg/disc, 24 h | – | inhibition zone | 18 mm |
| CCOC(=O)c1ccc(OCCC2CCN(c3ccc(C)nn3)CC2)cc1 | Enterovirus D68 | virus yield reduction | RD, US/KY/14-18953 | 72 h | – | EC90 | 106 ± 12 µM |
| CN(C)CCSc1nnc(C23CC4CC(CC(C4)C2)C3)n1C | Micrococcus luteus | microbial growth, disc diffusion | IFO3232 | 200 µg/disc, 24 h | – | inhibition zone | 10 mm |
| O=C1CSC(=S)N1/N=C/c1cn(Cc2cccc(Cl)c2)c2ccc([N+](=O)[O-])cc12 | Trypanosoma congolense | – | trypomastigotes, IL3000 | – | – | IC50 | > 56000 nM |
| TDVDHAFLRF-NH2 (C-amide) | Drosophila melanogaster | gut contraction | wandering third instar larval gut | injection, 1 µM, within 10 min | relative to: DMS effect | inhibition | 91% |
| COc1cccc(/C=C/c2nc3ccc(N4CCCCC4)cc3c(=O)n2-c2cccc(C(C)(C)C)c2)n1 | Zika virus | viral replication, inhibitor | Vero | 0.3 µM | – | inhibition | 0% |
| Cc1cc(C(C#N)c2ccc(Cl)cc2)c(Cl)cc1NC(=O)c1cc(I)cc(I)c1O (stereo not shown) | Haemonchus contortus | – | multidrug resistant, sheep | subcutaneous, 5 mg/kg, day 6 post-treatment, added: moxidectin 0.2 mg/kg | – | faecal egg count reduction | 86% |
| TDVDHVFLAF-NH2 (C-amide) | Drosophila melanogaster | gut contraction | wandering third instar larval gut | injection, 1 µM, within 10 min | relative to: DMS effect | inhibition | 74% |
| CC(C)(C)c1cccc(-n2c(/C=C/c3ccc(C(F)(F)F)nc3)nc3ccc(N4CCCCC4)cc3c2=O)c1 | Zika virus | viral replication, inhibitor | Vero | 10 µM | – | inhibition | 99% |

Some of these lines once more:
| Molecule | target or system | assay | test system | conditions | how to read | measurement | value |
| --- | --- | --- | --- | --- | --- | --- | --- |
| O=C(O)c1cc(O)c(O)c(O)c1 | Human immunodeficiency virus 1 | viral replication, inhibitor | TZM-bl, BAL | 11.1 µM | – | inhibition | ~50% |
| TDVDHAFLRF-NH2 (C-amide) | Drosophila melanogaster | gut contraction | wandering third instar larval gut | injection, 1 µM, within 10 min | relative to: DMS effect | inhibition | 91% |
| CC[C@H]1OC(=O)[C@H](C)[C@@H](O[C@H]2C[C@@](C)(OC)[C@@H](O)[C@H](C)O2)[C@H](C)[C@@H](O[C@@H]2O[C@H](C)C[C@H](N(C)C)[C@H]2O)[C@](C)(O)C[C@@H](C)C(=O)[C@H](C)[C@@H](O)[C@]1(C)O | Streptococcus pyogenes | – | hospitalized pneumonia patients, clinical isolates | Fine score 70 or more | – | susceptible isolates | 100% |
| Nisin A | Lactococcus lactis | deferred antagonism overlay | 90869, GM17 agar | concentration not given, produced by spotted strain | – | inhibition zone diameter | 7.5 ± 0.38 mm |
